Assay results pooled from the literature.
Sequence of UniProt P10721 (whole entry, unmodified, looked up): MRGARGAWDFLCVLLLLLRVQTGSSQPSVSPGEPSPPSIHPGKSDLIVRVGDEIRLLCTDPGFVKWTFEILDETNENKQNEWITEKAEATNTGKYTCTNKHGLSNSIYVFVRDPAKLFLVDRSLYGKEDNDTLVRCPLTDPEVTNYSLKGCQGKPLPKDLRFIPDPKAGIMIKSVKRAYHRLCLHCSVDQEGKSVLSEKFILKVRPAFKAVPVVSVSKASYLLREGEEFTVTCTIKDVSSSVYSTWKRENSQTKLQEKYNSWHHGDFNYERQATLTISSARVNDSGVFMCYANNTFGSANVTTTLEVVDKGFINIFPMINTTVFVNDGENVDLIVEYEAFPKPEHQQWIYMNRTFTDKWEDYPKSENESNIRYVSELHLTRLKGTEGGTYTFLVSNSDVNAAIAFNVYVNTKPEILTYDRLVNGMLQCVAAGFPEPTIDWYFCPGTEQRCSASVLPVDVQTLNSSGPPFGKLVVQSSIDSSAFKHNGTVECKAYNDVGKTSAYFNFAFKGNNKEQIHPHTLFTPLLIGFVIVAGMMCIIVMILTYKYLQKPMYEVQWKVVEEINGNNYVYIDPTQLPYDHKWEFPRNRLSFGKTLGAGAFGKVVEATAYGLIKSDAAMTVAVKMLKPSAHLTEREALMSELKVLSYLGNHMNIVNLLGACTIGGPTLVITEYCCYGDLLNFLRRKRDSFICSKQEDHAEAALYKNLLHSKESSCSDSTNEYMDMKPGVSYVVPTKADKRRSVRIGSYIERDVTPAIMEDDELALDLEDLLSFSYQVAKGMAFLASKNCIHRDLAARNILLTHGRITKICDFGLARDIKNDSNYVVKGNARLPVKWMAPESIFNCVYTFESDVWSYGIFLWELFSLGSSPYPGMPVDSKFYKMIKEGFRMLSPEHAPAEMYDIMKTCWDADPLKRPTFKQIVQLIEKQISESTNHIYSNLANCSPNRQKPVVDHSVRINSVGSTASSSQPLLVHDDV

| SMILES | target or system | assay | conditions | endpoint | value |
| --- | --- | --- | --- | --- | --- |
| CCC(=CCc1c(O)cc2c(c1O)C(=O)C[C@@H](c1ccccc1O)O2)CC | HeLa | cell growth or viability, MTT | 120 µM, 48 h | inhibition | 72.7% |
| CC(=O)Nc1ccc(Oc2nnc(-c3ccc(Cl)cc3)c3ccccc23)cc1 | MCF7 | cell growth or viability, MTT | 0.312 µM, 24 h | viability | 15.6% |
| CS(=O)(=O)NCCCNCc1ccc(-c2cccc(-c3nc4cc(C(F)(F)F)ccc4[nH]3)c2)cc1 | HEK293 | cell growth or viability |  | IC50 | > 10 µM |
| S=C(Nc1ccccc1)Nc1ccc(Oc2nnc(-c3ccc(Cl)cc3)c3ccccc23)cc1 | MCF7 | cell growth or viability, MTT | 1.25 µM | cell death | 43.3% |
| CNc1ncc2c(/C=C/C(=O)N3CCC(OC)CC3)nn(CCC(C)C)c2n1 | FLO-1 | cell growth or viability, resazurin | 5 days | EC50 | 18.8 µM |
| Cc1[nH]c(C)c(-c2ccc(-c3ccc(Cl)cc3)cc2)c(=O)c1Cl | HEK293 | cell growth or viability |  | IC50 | > 10 µM |
| COc1cccc(Cn2nc(-c3ccc(CO)o3)c3ccccc32)c1 | RBE | cell growth or viability, ATP luminescence | 46 µM, 72 h | inhibition | 76% |
| CN(C)CCNC(=O)c1ccc(-c2nc3ccc4[nH]ncc4c3c3c2CCCCC3)c(F)c1 | ML-2 | cell growth or viability | 72 h | GI50 | 0.283 µM |
| CC(=NNC(=O)c1ccccc1)c1ccc(Nc2nnc(-c3ccc(Cl)cc3)c3ccccc23)cc1 | MCF7 | cell growth or viability, MTT | 0.625 µM, 24 h | viability | 98.6% |
| C[C@@H]1CC[C@@H]([C@](O)(CNCc2ccccc2)COCc2ccc(F)cc2)[C@H](OCc2ccc(F)cc2)C1 | HeLa | cell growth or viability, MTT | 10 µM, 72 h | inhibition | 98.2% |
| O=C(NC(=O)c1ccccc1O)c1ccccc1O | HEK293 | cell growth or viability |  | IC50 | > 10 µM |
| C=CC(=O)N1CCC(COCC(=O)N2CCN(c3nc(-c4cnc(N)nc4C(F)F)nc(N4CCOC[C@@H]4C)n3)CC2)CC1 | Tyrosine-protein kinase ABL1, non-phosphorylated (ABL1, Homo sapiens, UniProt P00519, T315I) | binding, competition with immobilised ligand | 1 µM | remaining binding | 77% |
| CC(=NNC(=O)c1ccncc1)c1ccc(Nc2nnc(-c3ccc(Cl)cc3)c3ccccc23)cc1 | MCF7 | cell growth or viability, MTT | 0.625 µM | cell death | 95.5% |
| CNc1ncc2c(/C=C/C(=O)N3CCC(OC)CC3)nn(CC3OCCO3)c2n1 | FLO-1 | cell growth or viability, resazurin | 5 days | EC50 | > 30 µM |
| O=C(Nc1ccc(Oc2nnc(-c3ccc(Cl)cc3)c3ccccc23)cc1)c1cccc([N+](=O)[O-])c1 | MCF7 | cell growth or viability, MTT | 2.5 µM | cell death | 95.1% |
| OCc1ccc(-c2nn(Cc3ccccc3)c3cnccc23)o1 | RBE | cell growth or viability, ATP luminescence | 46 µM, 72 h | inhibition | 17% |
| C=CCNC(=S)NNC(=O)COc1ccc2c(C)c(CC)c(=O)oc2c1C | PC-3 | cell growth or viability, MTT | 125 µg/mL | viability | 24.3% |
| C[C@H]1Oc2cc(cnc2N)-c2c(nn(C)c2C#N)CN(C)C(=O)c2ccc(F)cc21 | MB002 | cell growth or viability | 7 days | IC50 | > 10 µM |
| Cc1ccc(C(CS(=O)(=O)c2ccccc2)=NNC2=NC(=O)C(=NNc3ccc([N+](=O)[O-])cc3)S2)cc1 | WM 266-4 | cell growth or viability, MTT | 25 µM, 48 h | viability | 34.7% |
| O=C(C=Cc1ccccc1)Nc1ccc(Oc2nnc(-c3ccc(Cl)cc3)c3ccccc23)cc1 | MCF7 | cell growth or viability, MTT | 2.5 µM, 24 h | viability | 21.2% |
| COc1cc(-c2cncc3c2CN(C)Cc2cc(N4CCNCC4)ccc2-3)cc(OC)c1OC | Mast/stem cell growth factor receptor Kit (KIT, Homo sapiens, UniProt P10721, V560G) | enzyme activity, inhibitor | 1 µM | remaining activity | 92% |
| CCc1c(C)c2ccc(OCC(=O)NN=Cc3ccc([N+](=O)[O-])cc3)cc2oc1=O | PC-3 | cell growth or viability, MTT | 1000 µg/mL | viability | 3.03% |
| N#Cc1ccc(N[C@@H](CC2CCCCC2)C(=O)N[C@@H]2CCCc3ccccc32)c2ccccc12 | HEK293 | cell growth or viability |  | IC50 | > 10 µM |
| CC(=NNC(=O)c1ccccc1Cl)c1ccc(Nc2nnc(-c3ccc(Cl)cc3)c3ccccc23)cc1 | MCF7 | cell growth or viability, MTT | 10 µM | cell death | 95.3% |
| CCOc1ccc2c(C)c(CC)c(=O)oc2c1C | PC-3 | cell growth or viability, MTT | 250 µg/mL | viability | 8.76% |
| C[C@@H]1CC[C@@H]([C@](C)(O)Cn2cnc3ccccc32)[C@H](OCc2ccccc2)C1 | A2780 | cell growth or viability, MTT | 10 µM, 72 h | inhibition | 35.2% |

A few entries again:
| SMILES | target or system | assay | conditions | endpoint | value |
| --- | --- | --- | --- | --- | --- |
| C=CCNC(=S)NNC(=O)COc1ccc2c(C)c(CC)c(=O)oc2c1C | PC-3 | cell growth or viability, MTT | 125 µg/mL | viability | 24.3% |
| C[C@@H]1CC[C@@H]([C@](C)(O)Cn2cnc3ccccc32)[C@H](OCc2ccccc2)C1 | A2780 | cell growth or viability, MTT | 10 µM, 72 h | inhibition | 35.2% |
| CS(=O)(=O)NCCCNCc1ccc(-c2cccc(-c3nc4cc(C(F)(F)F)ccc4[nH]3)c2)cc1 | HEK293 | cell growth or viability |  | IC50 | > 10 µM |
| C=CC(=O)N1CCC(COCC(=O)N2CCN(c3nc(-c4cnc(N)nc4C(F)F)nc(N4CCOC[C@@H]4C)n3)CC2)CC1 | Tyrosine-protein kinase ABL1, non-phosphorylated (ABL1, Homo sapiens, UniProt P00519, T315I) | binding, competition with immobilised ligand | 1 µM | remaining binding | 77% |
